Assay results of several laboratories.
Compare with care: the assays were run in different laboratories. ± marks the error that the study gave.
Method: steady-state kinetics
B1: ASRGL1 (Homo sapiens, UniProt Q7L266); chain 1 MNPIVVVHGGGAGPISKDRKERVHQGMVRAATVGYGILREGGSAVDAVEGAVVALEDDPEFNAGCGSVLNTNGEVEMDASIMDGKDLSAGAVSAVQCIANPIKLARLVMEKTPHCFLTDQGAAQFAAAMGVPEIPGEKLVTERNKKRLEKEKHEKGAQKTDCQKNLG; chain 2 TVGAVALDCKGNVAYATSTGGIVNKMVGRVGDSPCLGAGGYADNDIGAVSTTGHGESILKVNLARLTLFHIEQGKTVEEAADLSLGYMKSRVKGLGGLIVVSKTGDWVAKWTSTSMPWAAAKDGKLHFGIDPDDTTITDLP
B2: enzyme (Thermobifida fusca, UniProt Q47RA9); chain MIMIMASKSSPHDLPDVSGLSIAVLGGTGDQGRGLARRFAMAGHEVILGSRSAERAQAVAAELGEGLPVRGMDNAGAAEAGDVVIVAVPWDGHRALLESLKDVLAGKIVVDCVNPLGFDKRGAYALPVEEGSAAEQAAAILPDSRVVAAFHHVSAVLLLDPEVEKVDLDVLVLGDDREATDVVRALAARIPGVRGVYGGRLRNAHQVEAFTANLISINRRYKAHAGIRITDI
B3: protein (Shewanella denitrificans, UniProt Q12KT8); chain MIHKLADVQSQNIGDNTKVWQFCVILAGAVIGRNCNICANSLIENDVVIGDNVTIKSGVQIWDGIHIQDDVFIGPNVTFTNDKQPRSKIYPDEYLKTIVKKGASIGANSTILPGILIGENAMVGAGAVITKNVPDNAIVIGNPGRITGYVEANTGVIMPSNNFELKLQMSKVKGVSLHKFHLVNDLRGNLSVGEFEKDIPFTPKRYFTVFGVPNKEVRGEHAHKECKQFLICVSGNCSVLVDDGENREEYVLDSIDKGIYLPPMTWGVQYKYSKDAVLLVFASHYYDSDDYIRDYSTFKQMRQN
B4: enzyme (Thermococcus kodakarensis, UniProt Q5JID5); chain MLYVEILGNLPEMARDEVKAMLELGGGEIIGQDYLFLKVDAGEKAFPFLDRLGLAHEYGLLLVEADSVEELLQKAGEVEWPIKGAFKVDTETMANCRHDVLDLPRKLGAVIHAQGFRVNLSKPDTVVRVYCGERLYAGIRLRYFDPKDFEKRKAHHRPFFRPISLHPRVSRALVNLTKATREILDPFMGAGGILIEAGLLGLRVYGVDIRPEMVEGAETNLKHYGVRDYTLKLGDATRLEDLFPDKKFEAVATDPPYGTAATLAGRKRDELYRKALRSIYNVLEDGGRLAIAFPTDFNGKAEAEAVGFRTLGRYYQRVHKSLERYFYVFEK
B5: putA (Rhodobacter capsulatus, UniProt D5AN87); chain MTDLSALGPKAKFAPEAEVLQALVAQAALPQPQLDRIAARGADLVARIRAEAKPSLMEHFLAQYGLSTREGVALMCLAEAMLRVPDTATIDALIEDKIAPSDWGKHLGTAASSLVNASTWALMLTGKVLDDGAGGIAGTLRGAMRRLGEPVIRAAVGQAMREMGRQFVLGETIEKALERAEKREAEGYTFSYDMLGEAALTAADAERYRLAYAQAITAIGKAATRGSIAANPGISIKLSALHPRYEVAQEARVMAELVPVVRDLARAAARAGIALHIDAEEQDRLALSLRVMAAVIADPETAGWEGFGAVVQAYGKRAGAAIDALAAMARAAGRRINIRLVKGAYWDAEMKRAQVEGHPGFPLFTSKTGTDVAYICLAAKLFGLNDCIYPQFATHNAHTVAAVLEMAAGRPFEFQRLHGMGARLHDIVLRETGGRCRIYAPVGAHRDLLAYLVRRLLENGANSSFVNQIVNESVPPAEVAACPFAALPTARAPRGLLAPADLFGAGRVNAQGFDLSDPEVLARIEAARDVTLPDAAPIVAGPVSGTLRPVRNPATGAVVAQVTEADAATVALALDAAQVWSAPAATRAAVLCRAADLYEENFGPIFAALAQEAGKTLGDAVSELREAVDFLRYYAAEGAADTRPPRGAVVAISPWNFPLAIFTGQVAAALMAGNAVLAKPAEQTPIIAALAVRLLHQAGVPETALQLLPGDGPTVGAALTRDPRVAGVVFTGSTETAQIIARAMAAHLAPGTPLIAETGGLNAMVVDSTALPEQAVRDVVASAFRSAGQRCSALRCLYVQDDIAPHLIGMLKGAMEELVSGDPARLSTDVGPVIDAEAKAGIETYLAANKARILHRSTAPEGGHFVAPALLQVGGIADLEREIFGPVLHLATFAAEDLPAVIAAINARGYGLTFGLHSRIDARVETVAETIRAGNIYVNRNQIGAVVGSQPFGGEGLSGTGPKAGGPLYLNRFYAPEPVVAVGGWTEAATPILPEARETQLDEIFLPGPTGELNRLTRHQRGPILCLGPGAEAASAQAAAVVALGGQAVQASGAVSPKALETLTPLAGVLWWGAAEMGRAYAQALAVRPGPLVPLITAKPDLAHVAHERHLCVDTT
B6: enzyme (Thermus thermophilus, UniProt Q72J81); chain MEVKRIGVVGAGQMGSGIAQVAASAGYEVVLVDVAESFLERGLAAIRRSLGKFLEKGKITQEAHDEALGRIRTSLSLEDLKDADLIVEAIVEDEGEKRRLFERLGALAKPEAILASNTSSIPITALARYSGRPERFIGMHFFNPVPLMQLVEVIRGELTSEATRDVVVEVARRMGKTPLEVQDYPGFISNRLLMPMINEAIEALREGVATKEAIDGIMRLGMNHPMGPLELADFIGLDTCLAIMEVLHRGFGDDKYRPSPLLRRMVQAGLLGRKAGRGFYTYDEKGNKVG
B7: enzyme (Brachypodium distachyon, UniProt I1IPY7); chain MEQGKAALGWAARDASGHLSPYNFSRRVQKDDDVTIKVLFCGICHTDLHIIKNEWGNALYPIVPGHEVVGVVTDVGPGVKNFKAGETVGVGYFLDSCRTCDSCSKGHENYCPTLVLTSNGVDYDGATTQGGFSDVVVVNQDYVVRVPDTLPPDGAAPLLCAGVTVYSPMMQYGLNAPGKHLGVVGLGGLGHMAVKFGKAFGMKVTVISSSLRKREEALDRLGADDFLVSSDAEQMKAAAGAMDGIIDTVSAGHPIVPLLELLRPMGQMVVCGAPSEPLQLPAYAVITGGKRIAGNGVGSVRDCQAMLDFAGEHGITADVEVVKMDYVNTAVERLERNDVRYRFVIDVAGSLQQGGAA
B8: cyc1 F332A (Streptomyces coelicolor, UniProt Q9K499); chain MHAFPHGTTATPTAIAVPPSLRLPVIEAAFPRQLHPYWPKLQETTRTWLLEKRLMPADKVEEYADGLCYTDLMAGYYLGAPDEVLQAIADYSAWFFVWDDRHDRDIVHGRAGAWRRLRGLLHTALDSPGDHLHHEDTLVAGFADSVRRLYAFLPATWNARFARHFHTVIEAYDREFHNRTRGIVPGVEEYLELRRLTFAHWIWTDLLEPSSGCELPDAVRKHPAYRRAALLSQEFAAWYNDLCSLPKEIAGDEVHNLGISLITHHSLTLEEAIGEVRRRVEECITEFLAVERDALRFADELADGTVRGKELSGAVRANVGNMRNWFSSVYWAHHESGRYMVDSWDDRSTPPYVNNEAAGEK
B9: Alanine racemase (Geobacillus stearothermophilus, UniProt P10724); chain MNDFHRDTWAEVDLDAIYDNVENLRRLLPDDTHIMAVVKANAYGHGDVQVARTALEAGASRLAVAFLDEALALREKGIEAPILVLGASRPADAALAAQQRIALTVFRSDWLEEASALYSGPFPIHFHLKMDTGMGRLGVKDEEETKRIVALIERHPHFVLEGLYTHFATADEVNTDYFSYQYTRFLHMLEWLPSRPPLVHCANSAASLRFPDRTFNMVRFGIAMYGLAPSPGIKPLLPYPLKEAFSLHSRLVHVKKLQPGEKVSYGATYTAQTEEWIGTIPIGYADGWLRRLQHFHVLVDGQKAPIVGRICMDQCMIRLPGPLPVGTKVTLIGRQGDEVISIDDVARHLETINYEVPCTISYRVPRIFFRHKRIMEVRNAIGRGESSA
B10: CDO (Bacillus subtilis, UniProt O32085); chain MELYECIQDIFGGLKNPSVKDLATSLKQIPNAAKLSQPYIKEPDQYAYGRNAIYRNNELEIIVINIPPNKETTVHDHGQSIGCAMVLEGKLLNSIYRSTGEHAELSNSYFVHEGECLISTKGLIHKMSNPTSERMVSLHVYSPPLEDMTVFEEQKEVLENS
B11: enzyme (Arabidopsis thaliana, UniProt Q9STE6); chain MEKNAEKKRIVLVPFPLQGHITPMMQLGQALNLKGFSITVALGDSNRVSSTQHFPGFQFVTIPETIPLSQHEALGVVEFVVTLNKTSETSFKDCIAHLLLQHGNDIACIIYDELMYFSEATAKDLRIPSVIFTTGSATNHVCSCILSKLNAEKFLIDMKDPEVQNMVVENLHPLKYKDLPTSGMGPLERFLEICAEVVNKRTASAVIINTSSCLESSSLSWLKQELSIPVYPLGPLHITTSANFSLLEEDRSCIEWLNKQKLRSVIYISVGSIAHMETKEVLEMAWGLYNSNQPFLWVIRPGTESMPVEVSKIVSERGCIVKWAPQNEVLVHPAVGGFWSHCGWNSTLESIVEGVPMICRPFNGEQKLNAMYIESVWRVGVLLQGEVERGCVERAVKRLIVDDEGVGMRERALVLKEKLNASVRSGGSSYNALDELVHYLEAEYRNT

Molecule	substrate	pH	temperature	notes	together with	kcat [s⁻¹]
CT1526 (Chlorobium tepidum, UniProt Q8KC98)	Nc1nc2c(ncn2[C@@H]2O[C@H](COP(=O)(O)OP(=O)(O)OP(=O)(O)O)[C@@H](O)[C@H]2O)c(=O)[nH]1	pH 7.5	25 °C	NaCl 150 mM, no nanobody	–	0.00167 ± 3.33e-05
B1 (ASRGL1)	COC(=O)[C@H](Cc1ccccc1)NC(=O)C[C@H](N)C(=O)O	pH 7.4	37 °C	NaCl 100 mM	–	3.5 ± 0.1
B2 (enzyme)	NC(=O)c1ccc[n+](CCO)c1	pH 8	25 °C	–	–	0.0233 ± 0.001
B3 (protein)	Cc1cn([C@H]2C[C@H](O)[C@@H](COP(=O)(O)OP(=O)(O)O[C@H]3O[C@H](C)[C@@H](O)[C@H](N)[C@H]3O)O2)c(=O)[nH]c1=O	pH 8.5	–	–	acetyl-CoA 2 mM	7.9 ± 0.8
B4 (enzyme)	C[S+](CC[C@H](N)C(=O)O)C[C@H]1O[C@@H](n2cnc3c(N)ncnc32)[C@H](O)[C@@H]1O	pH 7.5	50 °C	apparent	–	0.00817 ± 0.00133
B5 (putA)	O=C(O)[C@@H]1CCCN1	pH 8	23 °C	–	–	26.9 ± 0.9
B6 (enzyme)	NC(=O)C1=CN([C@@H]2O[C@H](COP(=O)(O)OP(=O)(O)OC[C@H]3O[C@@H](n4cnc5c(N)ncnc54)[C@H](O)[C@@H]3O)[C@@H](O)[C@H]2O)C=CC1	pH 7	65 °C	cofactor varied	–	20.3
B7 (enzyme)	NC(=O)c1ccc[n+]([C@@H]2O[C@H](COP(=O)(O)OP(=O)(O)OC[C@H]3O[C@@H](n4cnc5c(N)ncnc54)[C@H](OP(=O)(O)O)[C@@H]3O)[C@@H](O)[C@H]2O)c1	pH 8.8	23 °C	cofactor varied	–	5.24
B8 (cyc1 F332A)	CC(C)=CCC/C(C)=C/CC/C(C)=C/CO[P@@](=O)(O)OP(=O)(O)O	pH 6.5	30 °C	–	MgCl2 10 mM	0.000105 ± 8e-06
B9 (Alanine racemase)	C[C@@H](N)C(=O)O	pH 8.9	25 °C	D to L direction	–	1280
B10 (CDO)	N[C@@H](CS)C(=O)O	pH 6.1	37 °C	–	O2, Fe(II)	0.4 ± 0.1
enzyme (Streptomyces filamentosus, UniProt A0ABY4UVI6)	CSc1c(O)cc(-c2ccccn2)nc1C(=O)N[C@@H](CC(C)C)C(=O)O	pH 8	30 °C	–	–	0.0132 ± 0.000333
enzyme (Clostridium autoethanogenum, UniProt A0ABM5NRF0)	NC(=O)C1=CN([C@@H]2O[C@H](COP(=O)(O)OP(=O)(O)OC[C@H]3O[C@@H](n4cnc5c(N)ncnc54)[C@H](OP(=O)(O)O)[C@@H]3O)[C@@H](O)[C@H]2O)C=CC1	pH 7.5	25 °C	cofactor varied	–	68 ± 3
B11 (enzyme)	CC(=O)N[C@H]1[C@@H](OP(=O)(O)OP(=O)(O)OC[C@H]2O[C@@H](n3ccc(=O)[nH]c3=O)[C@H](O)[C@@H]2O)O[C@H](CO)[C@@H](O)[C@@H]1O	pH 7.5	25 °C	–	–	0.0166

Repeated from above:
Molecule	substrate	pH	temperature	notes	together with	kcat [s⁻¹]
B2 (enzyme)	NC(=O)c1ccc[n+](CCO)c1	pH 8	25 °C	–	–	0.0233 ± 0.001
